Measured values collected from several papers.
“And” joins repeats or separate records; there may be more than shown. ± marks the error that the study gave.

CCOc1ccc2cc(-c3nn(CC4CCNCC4)c4ncnc(N)c34)ccc2n1 — plasma concentration (piglets, crossbred; oral, 10 mg/kg, 2 h after dose 1, 3 days post infection): 10 ± 10 nM
N#Cc1ccc(-c2cc(=O)c3ccc4[nH]c(C(F)(F)F)nc4c3o2)cc1 — plasma stability: stable
CN1C(=CC2=C(O)C(=CC3=[N+](CCC[N+](C)(C)C)c4ccc(F)cc4C3(C)C)C2=O)C(C)(C)c2ccccc21 — plasma protein binding (rapid equilibrium dialysis; plasma): 4.5%
CCOc1ccc2cc(-c3nn(CC4CCN(C)CC4)c4ncnc(N)c34)ccc2n1 — plasma concentration (piglets, Landrace x Large White, plasma; oral, 10 mg/kg, 2 h after dose 1, 3 dpi): 4900 nM
Nc1c(S(=O)(=O)O)cc(Nc2cccc(S(N)(=O)=O)c2)c2c1C(=O)c1ccccc1C2=O — plasma stability (mouse plasma; 8 µM, 72 h, 37 °C): stable
CONC(=O)[C@H]1[C@@H](O)[C@@]2(O)c3c(cc(OC)nc3OC)O[C@@]2(c2ccc(C#N)cc2)[C@@H]1c1ccccc1 — plasma half-life (plasma; oral, 5 mg/kg): 9.97 ± 2 h
CN1CCC(Cn2nc(-c3ccc4nc(O)ccc4c3)c3c(N)ncnc32)CC1 — plasma concentration (piglets, crossbred; oral, 10 mg/kg twice daily, 2 h after dose 9, 7 days post infection): 20 ± 10 nM
COc1ccc(-c2csc(N/N=C(\C)c3cc(O)cc(O)c3)n2)cc1 — plasma protein binding (equilibrium dialysis; human plasma, male; 3 µM, 5 h, pH 7.4): 99.4% and 100% and 99.9%
CN1C(=CC2=C(O)C(=CC3=[N+](CCC[N+](C)(C)C)c4ccccc4C3(C)C)C2=O)C(C)(C)c2ccccc21 — plasma protein binding (rapid equilibrium dialysis; plasma): 2.8%
O=C(CCC(C(=O)[O-])N1CCN(C(CCC(=O)NCC(O)CO)C(=O)[O-])Cc2cccc(n2)CN(C(CCC(=O)NCC(O)CO)C(=O)[O-])CC1)NCC(O)CO.[153Gd+3] (centres unmarked) — plasma protein binding (equilibrium dialysis; dog plasma; 0.01-5 µmol/mL, 2 h, 37 °C): 1.4%
OB1c2sccc2C=NN1Cc1ccccc1 — plasma stability (HPLC; human plasma; 400 µM, 10 h, 37 °C): stable

A few entries again:
COc1ccc(-c2csc(N/N=C(\C)c3cc(O)cc(O)c3)n2)cc1 — plasma protein binding (equilibrium dialysis; human plasma, male; 3 µM, 5 h, pH 7.4): 99.4% and 100% and 99.9%
